{"data": "Assay results from different studies", "note": "Each numbered part is a random draw from the data of one study; scales do not carry over between parts. Substitutions count along the parent as printed."}
{"data": "Study 1", "target": "Interferon regulatory factor 3, full length, phosphomimetic (IRF3, Homo sapiens, UniProt Q14653, residues 1-427, S386D/S396D/S398D/S402D/T404D/S405D)", "technique": "protein-binding microarray", "molecule type": "double-stranded DNA, one strand shown", "matrix": "in vitro", "concentration": "2540 nM top", "notes": "60-bp whole probe", "together with": "salmon DNA 0.4 mg/ml", "relative to": "random background probes", "reading": "higher = stronger binding", "shared flanks, not repeated": "GCCTAGCAC … GTCTTGATTCGCTTGACGCTGCTG", "Residues (chain)": "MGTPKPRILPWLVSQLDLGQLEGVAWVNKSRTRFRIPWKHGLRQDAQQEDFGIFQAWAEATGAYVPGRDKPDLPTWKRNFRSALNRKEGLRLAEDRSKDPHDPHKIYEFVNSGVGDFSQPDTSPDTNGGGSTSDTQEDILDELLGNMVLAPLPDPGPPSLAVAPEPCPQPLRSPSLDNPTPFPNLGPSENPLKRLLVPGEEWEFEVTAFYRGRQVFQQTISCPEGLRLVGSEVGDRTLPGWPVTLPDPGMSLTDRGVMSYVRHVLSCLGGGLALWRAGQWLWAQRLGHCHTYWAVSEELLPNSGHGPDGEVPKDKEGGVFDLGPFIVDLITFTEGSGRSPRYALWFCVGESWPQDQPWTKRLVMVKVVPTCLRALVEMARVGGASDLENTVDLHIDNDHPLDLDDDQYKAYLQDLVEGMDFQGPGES"}
{"Strand": "GACGATTTCGGGTATCAAGACGTGCTA", "fitted relative affinity": "1.98 z-score"}
{"Strand": "TTAGGACTGCTTTTCCTGTAGTGCTAG", "fitted relative affinity": "-0.018 z-score"}
{"Strand": "TTAGGCCTCCTACTGCTTTAGTGCTAG", "fitted relative affinity": "-0.541 z-score"}
{"Strand": "TCAGAACTGAGTATCGATTAGTGCTAG", "fitted relative affinity": "0.643 z-score"}
{"Strand": "GACGAACTGGGGACTTGAGACGTGCTA", "fitted relative affinity": "-0.385 z-score"}
{"Strand": "TGTTGTCTTAGATTCCTTTGGTGCTAG", "fitted relative affinity": "0.787 z-score"}
{"Strand": "GACGATATCAGTCTCGAGACGTGCTAG", "fitted relative affinity": "1.08 z-score"}
{"Strand": "GACGAACTGGGGTCTGGAGACGTGCTA", "fitted relative affinity": "-0.716 z-score"}
{"Strand": "TTCTCTAACCTCTCTAATAAAGTGCTA", "fitted relative affinity": "1.25 z-score"}
{"Strand": "GACGATCTCAGACTGGTGACGTGCTAG", "fitted relative affinity": "0.304 z-score"}
{"Strand": "TCATCTCCCAGACTGGAGTGGTGCTAG", "fitted relative affinity": "0.831 z-score"}
{"Strand": "TCAAATTTGGAAACCGAACTGTGCTAG", "fitted relative affinity": "1.53 z-score"}
{"Strand": "TTAGGACCGGGGACTGGGTTAGTGCTA", "fitted relative affinity": "-0.988 z-score"}
{"Strand": "TTATAACTGAGTTTCGATTAGTGCTAG", "fitted relative affinity": "2.75 z-score"}
{"Strand": "TTAGATTCCAGTTTAGATTAGTGCTAG", "fitted relative affinity": "3.23 z-score"}
{"Strand": "TCGTGGATTGCGACCCCTAGGTGCTAG", "fitted relative affinity": "-0.811 z-score"}
{"data": "Study 2", "target": "FOS, bZIP domain (human)", "technique": "DHFR protein complementation", "matrix": "yeast", "notes": "single substitutions, most at no-binding floor", "relative to": "wild-type JUN-FOS pair", "reading": "higher = stronger binding", "starting sequence": "JUN, bZIP domain (human); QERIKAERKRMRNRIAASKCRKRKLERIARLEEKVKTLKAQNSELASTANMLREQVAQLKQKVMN; partner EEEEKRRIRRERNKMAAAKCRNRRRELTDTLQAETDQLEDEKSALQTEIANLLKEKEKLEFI"}
{"Substitution": "T37H", "binding fitness [natural log]": 0.0413}
{"Substitution": "Q41H", "binding fitness [natural log]": -0.171}
{"Substitution": "R53C", "binding fitness [natural log]": -1.18}
{"Substitution": "M51T", "binding fitness [natural log]": 0.052}
{"Substitution": "K36V", "binding fitness [natural log]": -0.073}
{"Substitution": "K36W", "binding fitness [natural log]": -0.373}
{"Substitution": "R30K", "binding fitness [natural log]": -0.0897}
{"Substitution": "E32D", "binding fitness [natural log]": -0.216}
{"Substitution": "A29Q", "binding fitness [natural log]": -0.179}
{"Substitution": "R53W", "binding fitness [natural log]": -1.11}
{"Substitution": "Q41R", "binding fitness [natural log]": -0.274}
{"Substitution": "A40Y", "binding fitness [natural log]": -0.249}
{"Substitution": "S43T", "binding fitness [natural log]": 0.0251}
{"Substitution": "K34A", "binding fitness [natural log]": -0.144}
{"Substitution": "Q41M", "binding fitness [natural log]": -0.12}
{"Substitution": "A49G", "binding fitness [natural log]": -1.01}
{"Substitution": "T48H", "binding fitness [natural log]": -0.038}
{"Substitution": "E32W", "binding fitness [natural log]": -0.48}
{"Substitution": "L31D", "binding fitness [natural log]": -0.612}
{"Substitution": "E54W", "binding fitness [natural log]": -0.453}
{"Substitution": "A46F", "binding fitness [natural log]": -0.305}
{"Substitution": "E33M", "binding fitness [natural log]": -0.19}
{"data": "Study 3", "target": "CCND2, cyclin fold, Cln2 fusion (human)", "technique": "yeast growth competition, sequencing", "matrix": "yeast", "notes": "weak parent motif", "relative to": "not given", "reading": "higher = stronger binding", "starting sequence": "ASZ1 docking peptide (human); GFGFLLFICKLTF"}
{"Substitution": "GFGFLAFICKLTF [L6A]", "normalised enrichment score": -0.227}
{"Substitution": "GFGFLLAICKLTF [F7A]", "normalised enrichment score": -0.737}
{"Substitution": "GFGFALFICKLTF [L5A]", "normalised enrichment score": -0.38}
{"Substitution": "GFAFLLFICKLTF [G3A]", "normalised enrichment score": -0.0339}
{"Substitution": "GFGFLLFICKATF [L11A]", "normalised enrichment score": -0.444}
{"Substitution": "GFGFLLFICKLAF [T12A]", "normalised enrichment score": -0.532}
{"Substitution": "GFGALLFICKLTF [F4A]", "normalised enrichment score": -0.252}
{"data": "Study 4", "target": "Sal-like protein 4, full length isoform A (SALL4, Homo sapiens, UniProt Q9UJQ4, residues 1-1053)", "technique": "universal PBM", "molecule type": "double-stranded DNA, one strand shown", "matrix": "in vitro", "concentration": "600 nM", "notes": "8-mer, flanks averaged, mean of replicates", "reading": "higher = stronger binding", "UniProt Q9UJQ4, sequence (whole entry, looked up)": "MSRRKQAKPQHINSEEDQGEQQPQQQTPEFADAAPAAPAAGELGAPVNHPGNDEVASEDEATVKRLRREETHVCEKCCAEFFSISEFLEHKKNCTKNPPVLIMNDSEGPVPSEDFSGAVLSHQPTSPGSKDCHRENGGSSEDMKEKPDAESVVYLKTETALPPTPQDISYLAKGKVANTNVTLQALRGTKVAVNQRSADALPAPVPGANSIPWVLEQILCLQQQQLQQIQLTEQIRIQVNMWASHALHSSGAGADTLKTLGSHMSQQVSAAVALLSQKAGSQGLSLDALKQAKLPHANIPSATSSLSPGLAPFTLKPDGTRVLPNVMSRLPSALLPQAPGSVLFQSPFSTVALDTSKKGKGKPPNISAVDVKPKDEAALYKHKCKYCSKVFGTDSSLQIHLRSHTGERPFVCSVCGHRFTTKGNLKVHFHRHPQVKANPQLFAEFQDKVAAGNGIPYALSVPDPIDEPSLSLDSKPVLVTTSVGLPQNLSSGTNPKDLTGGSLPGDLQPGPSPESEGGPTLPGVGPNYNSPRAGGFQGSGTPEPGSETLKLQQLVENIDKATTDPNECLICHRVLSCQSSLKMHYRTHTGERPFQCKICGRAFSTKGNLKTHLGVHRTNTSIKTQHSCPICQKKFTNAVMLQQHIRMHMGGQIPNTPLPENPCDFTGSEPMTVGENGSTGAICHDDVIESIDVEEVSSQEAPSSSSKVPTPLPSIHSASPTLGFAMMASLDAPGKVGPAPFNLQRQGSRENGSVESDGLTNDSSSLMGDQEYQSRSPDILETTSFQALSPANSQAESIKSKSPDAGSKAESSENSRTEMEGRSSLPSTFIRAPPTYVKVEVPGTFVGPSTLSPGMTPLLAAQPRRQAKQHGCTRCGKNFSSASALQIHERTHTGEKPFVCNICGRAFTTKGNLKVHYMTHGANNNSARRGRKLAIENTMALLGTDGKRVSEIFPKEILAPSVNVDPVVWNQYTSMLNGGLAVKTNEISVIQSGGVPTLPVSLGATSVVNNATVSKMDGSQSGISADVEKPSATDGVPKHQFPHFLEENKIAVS"}
{"Strand": "ATCGCGTA", "E-score": -0.0196}
{"Strand": "GCGACACC", "E-score": -0.31}
{"Strand": "AGTCGCAG", "E-score": -0.066}
{"Strand": "GTCGTCAA", "E-score": -0.118}
{"Strand": "ACCTTCGT", "E-score": -0.00617}
{"Strand": "CATGGGTA", "E-score": -0.117}
{"Strand": "CGTCAAAC", "E-score": -0.0202}
{"Strand": "CTCTATTC", "E-score": 0.0222}
{"Strand": "AGAATTAT", "E-score": 0.37}
{"Strand": "GCGGATGA", "E-score": -0.0917}
{"Strand": "AAAGCTGC", "E-score": -0.0917}
{"Strand": "GCTTGGGA", "E-score": -0.189}
{"Strand": "CAACGGTC", "E-score": -0.164}
{"Strand": "ATATTTGC", "E-score": 0.342}
{"Strand": "CAGGGACA", "E-score": -0.174}
{"Strand": "GCCTGCGC", "E-score": -0.323}
{"Strand": "ATTGTGCA", "E-score": 0.0931}
{"Strand": "AAAGGCAT", "E-score": 0.105}
{"Strand": "GAACATGA", "E-score": 0.034}
{"Strand": "CATATGGG", "E-score": -0.0104}
{"Strand": "GCCAAGGC", "E-score": -0.365}
{"Strand": "AGAAGGAT", "E-score": 0.0624}
{"Strand": "CTTGGGTA", "E-score": 0.00396}
{"Strand": "TCATCCGA", "E-score": 0.115}
{"Strand": "GATTAAGA", "E-score": 0.207}
{"data": "Study 5", "target": "ABI1, truncated, D143A, DHFR fusion (Arabidopsis thaliana)", "technique": "DHFR PCA, deep sequencing", "matrix": "yeast", "notes": "methotrexate growth selection, single substitutions", "together with": "(+)-ABA 2500 µM", "relative to": "wild-type fitted maximum", "reading": "higher = stronger binding", "starting sequence": "PYL1, truncated, DHFR fusion (Arabidopsis thaliana); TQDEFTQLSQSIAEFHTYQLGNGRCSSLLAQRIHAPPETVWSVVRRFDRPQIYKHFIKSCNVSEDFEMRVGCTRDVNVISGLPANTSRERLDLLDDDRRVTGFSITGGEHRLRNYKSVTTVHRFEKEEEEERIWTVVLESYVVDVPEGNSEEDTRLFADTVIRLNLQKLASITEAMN; partner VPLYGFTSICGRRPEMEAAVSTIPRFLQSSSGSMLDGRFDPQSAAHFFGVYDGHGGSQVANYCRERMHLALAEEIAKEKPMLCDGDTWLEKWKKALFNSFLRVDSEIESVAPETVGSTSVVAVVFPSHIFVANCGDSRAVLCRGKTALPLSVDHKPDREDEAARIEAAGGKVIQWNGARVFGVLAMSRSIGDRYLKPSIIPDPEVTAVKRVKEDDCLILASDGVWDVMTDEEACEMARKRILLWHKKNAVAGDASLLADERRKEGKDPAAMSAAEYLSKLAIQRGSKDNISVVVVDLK"}
{"Substitution": "H34M", "relative binding score [%]": 101}
{"Substitution": "L8H", "relative binding score [%]": 91.4}
{"Substitution": "E147H", "relative binding score [%]": 98.1}
{"Substitution": "R155E", "relative binding score [%]": 85.4}
{"Substitution": "F66H", "relative binding score [%]": 90.3}
{"Substitution": "V161E", "relative binding score [%]": -8.37}
{"Substitution": "S63W", "relative binding score [%]": 88}
{"Substitution": "Q7G", "relative binding score [%]": 105}
{"Substitution": "Y141I", "relative binding score [%]": 2.55}
{"Substitution": "T160P", "relative binding score [%]": 3.2}
{"Substitution": "G102R", "relative binding score [%]": 89.6}
{"Substitution": "P83K", "relative binding score [%]": 19.7}
{"Substitution": "L20G", "relative binding score [%]": 102}
{"Substitution": "T120I", "relative binding score [%]": 19.8}
{"Substitution": "D48H", "relative binding score [%]": 86.2}
{"Substitution": "S59K", "relative binding score [%]": 93}
{"Substitution": "T101R", "relative binding score [%]": 24.5}
{"data": "Study 6", "target": "Histone acetyltransferase KAT6A, winged helix 1, GST fusion (KAT6A, Homo sapiens, UniProt Q92794, residues 1-85)", "technique": "protein binding microarray", "molecule type": "double-stranded DNA, one strand shown", "matrix": "in vitro", "concentration": "not given", "notes": "8-mer, flanks averaged, mean of 2 arrays, mostly near background", "relative to": "not given", "reading": "higher = stronger binding", "Target sequence (chain)": "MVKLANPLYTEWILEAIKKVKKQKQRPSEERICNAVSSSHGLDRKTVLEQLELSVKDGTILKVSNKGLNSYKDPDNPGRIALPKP"}
{"Strand": "AATACCAC", "E-score": -0.172}
{"Strand": "ACTGGCAA", "E-score": -0.16}
{"Strand": "CGGTGGAG", "E-score": 0.161}
{"Strand": "AAGCATAC", "E-score": -0.0482}
{"Strand": "CCTTTAGC", "E-score": -0.0266}
{"Strand": "CTCCGGAG", "E-score": 0.0328}
{"Strand": "AACTTGAG", "E-score": -0.27}
{"Strand": "CATCAGTA", "E-score": -0.154}
{"Strand": "AATTCGAG", "E-score": -0.14}
{"Strand": "GAAGCACC", "E-score": -0.107}
{"Strand": "AGGCGAAA", "E-score": -0.14}
{"Strand": "CCAGGTGC", "E-score": -0.129}
{"Strand": "GATCAGTA", "E-score": -0.158}
{"Strand": "AACGGGAT", "E-score": 0.228}
{"Strand": "CGGTCGTC", "E-score": 0.2}
{"Strand": "CAACTGTC", "E-score": -0.135}
{"Strand": "AAAAGTAG", "E-score": -0.16}
{"Strand": "GAGAGAAC", "E-score": -0.257}
{"note": "A few entries again (study 3):"}
{"Substitution": "GFGFLAFICKLTF [L6A]", "normalised enrichment score": -0.227}
{"Substitution": "GFGFLLAICKLTF [F7A]", "normalised enrichment score": -0.737}
{"Substitution": "GFGFALFICKLTF [L5A]", "normalised enrichment score": -0.38}
{"Substitution": "GFAFLLFICKLTF [G3A]", "normalised enrichment score": -0.0339}
{"Substitution": "GFGFLLFICKATF [L11A]", "normalised enrichment score": -0.444}
{"Substitution": "GFGFLLFICKLAF [T12A]", "normalised enrichment score": -0.532}
{"Substitution": "GFGALLFICKLTF [F4A]", "normalised enrichment score": -0.252}
